{"data": "Experimental data from different studies", "UCHL1": "Ubiquitin carboxyl-terminal hydrolase isozyme L1 (UCHL1, Homo sapiens, UniProt P09936)", "note": "Each line is one published result; not all experiments were run side by side.", "chain of UniProt P09936 (whole entry, looked up)": "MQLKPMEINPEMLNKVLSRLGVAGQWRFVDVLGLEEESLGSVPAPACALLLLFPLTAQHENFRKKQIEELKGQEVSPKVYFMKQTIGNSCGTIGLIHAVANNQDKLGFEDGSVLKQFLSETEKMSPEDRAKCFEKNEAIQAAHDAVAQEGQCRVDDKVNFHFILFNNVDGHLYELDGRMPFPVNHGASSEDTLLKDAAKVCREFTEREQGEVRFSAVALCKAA"}
{"SMILES": "Cc1noc(C)c1-c1cc(C(O)(c2ccccn2)c2ccccn2)c2nc(C3CC3)[nH]c2c1", "system": "human patients, fasted, plasma", "setting": "oral, 6 mg once daily, cycle 1 day 15, together with: enzalutamide once daily", "quantity": "AUC(0-last)", "value": "701 ng·h/mL"}
{"SMILES": "CC(F)(F)c1cc(F)ccc1-c1sc2cc(O)ccc2c1Oc1ccc(/C=C/C(=O)O)cc1", "system": "human patients, serum", "setting": "oral, 300 mg twice daily, cycle 1 day 28, regular meal, mean", "quantity": "AUC(0-last)", "value": "16400 ng·h/mL"}
{"SMILES": "CC(C)n1nc(-c2ccc3oc(N)nc3c2)c2c(N)ncnc21", "system": "human, plasma", "setting": "oral, 2 mg once daily, cycle 1 day 15", "quantity": "AUC(0-last)", "value": "236 ng·h/mL"}
{"SMILES": "CN(C)C(=O)c1cc2cnc(Nc3ccc(N4CCNCC4)cn3)nc2n1C1CCCC1", "system": "human, normal renal function, plasma", "setting": "oral, 400 mg, single dose, adjusted geometric mean", "quantity": "AUC(0-last)", "value": "5500 ng·h/mL"}
{"SMILES": "C=CC(=O)N1CCC[C@@H](n2c(=O)n(-c3ccc(Oc4ccccc4)cc3)c3c(N)nccc32)C1", "system": "human", "setting": "oral, 240 mg", "scale": "baseline: fed over fasted", "quantity": "AUC(0-last) fed/fasted ratio", "value": 1.72}
{"SMILES": "Cc1cc(Nc2cc3ncccc3c(N[C@@H]3C[C@H]4CC[C@@H](C3)N4CCC#N)n2)n[nH]1", "system": "human, plasma", "setting": "100 mg single dose, mean", "quantity": "AUC(0-last)", "value": "16.6 ng·h/mL"}
{"SMILES": "Cc1cc(C)c(-c2cc(NC(=O)CCl)n(-c3ccccc3)n2)cc1C", "target or system": "UCHL1", "test": "covalent, intact protein LC-MS", "setting": "12.5 µM", "quantity": "labelling", "value": "10.4%"}
{"SMILES": "CCOc1c([C@H](C)n2nc(C)c3c(N)ncnc32)cc(Cl)c(F)c1[C@@H]1CNC(=O)C1", "system": "human patients", "setting": "oral, 15 mg once daily, cycle 1 day 15, monotherapy, geometric mean", "quantity": "AUC(0-last)", "value": "9.92 µM·h"}
{"SMILES": "Cc1n[nH]c(C)c1C=C(C#N)C(=O)Nc1cc(Cl)cc(Cl)c1", "target or system": "UCHL1", "test": "covalent, intact protein LC-MS", "setting": "12.5 µM", "quantity": "labelling", "value": "19%"}
{"SMILES": "COC(=O)N[C@@H](C)CNc1nccc(-c2cn(C(C)C)nc2-c2cc(Cl)cc(NS(C)(=O)=O)c2F)n1", "system": "humans, plasma", "setting": "oral, dose not given, day 1, single dose, together with: binimetinib", "quantity": "AUC(0-last) median", "value": "23500 ng·h/mL"}
{"SMILES": "C=CC(=O)N(C)CCOc1c(N)ncnc1-c1cc(F)cc(NC(=O)c2ccc(C3CC3)cc2F)c1C", "system": "human", "setting": "oral, 50 mg, day 3, median, given alone", "quantity": "AUC(0-last) per dose", "value": "4.61 ng·h/mL/mg"}
{"SMILES": "CC(C)NC(=O)COc1cccc(-c2nc(Nc3ccc4[nH]ncc4c3)c3ccccc3n2)c1", "system": "human male, plasma", "setting": "oral, dose not given, day 13, adjusted geometric mean, together with: rosuvastatin", "quantity": "AUC(0-last)", "value": "13600 ng·h/mL"}
